Measured values from different studies.
Each line is one published result; not all experiments were run side by side. Values joined by “and” are separate records of one study, mostly repeats; a detail may differ.
UniProt P11802, sequence (whole entry, looked up): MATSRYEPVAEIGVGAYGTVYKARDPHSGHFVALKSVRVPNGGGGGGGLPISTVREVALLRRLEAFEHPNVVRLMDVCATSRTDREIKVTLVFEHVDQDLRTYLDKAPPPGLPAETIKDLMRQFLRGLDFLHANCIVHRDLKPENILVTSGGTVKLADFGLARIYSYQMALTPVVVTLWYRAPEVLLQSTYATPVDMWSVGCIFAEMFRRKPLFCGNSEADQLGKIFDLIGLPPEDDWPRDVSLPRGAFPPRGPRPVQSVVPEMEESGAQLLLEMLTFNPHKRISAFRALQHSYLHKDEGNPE
UniProt P27361, sequence (whole entry, looked up): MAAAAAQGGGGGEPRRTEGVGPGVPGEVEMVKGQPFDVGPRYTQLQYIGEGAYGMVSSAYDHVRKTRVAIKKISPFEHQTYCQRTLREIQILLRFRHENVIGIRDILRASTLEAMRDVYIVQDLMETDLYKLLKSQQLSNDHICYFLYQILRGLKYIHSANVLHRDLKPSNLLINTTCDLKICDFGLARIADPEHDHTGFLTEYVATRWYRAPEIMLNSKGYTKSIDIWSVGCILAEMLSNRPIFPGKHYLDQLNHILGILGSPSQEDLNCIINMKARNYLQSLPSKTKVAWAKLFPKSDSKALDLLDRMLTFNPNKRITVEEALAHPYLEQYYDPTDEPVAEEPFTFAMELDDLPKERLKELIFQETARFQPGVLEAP
UniProt Q9SZU7, sequence (whole entry, unmodified, looked up): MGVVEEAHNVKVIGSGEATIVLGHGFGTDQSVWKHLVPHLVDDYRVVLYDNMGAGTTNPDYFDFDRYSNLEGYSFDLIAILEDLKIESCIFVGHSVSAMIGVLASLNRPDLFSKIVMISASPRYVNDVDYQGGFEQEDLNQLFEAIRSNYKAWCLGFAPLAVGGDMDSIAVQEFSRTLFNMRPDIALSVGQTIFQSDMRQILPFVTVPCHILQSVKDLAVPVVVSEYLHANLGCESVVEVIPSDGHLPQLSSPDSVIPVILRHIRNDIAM
UniProt P49137, sequence (whole entry, looked up): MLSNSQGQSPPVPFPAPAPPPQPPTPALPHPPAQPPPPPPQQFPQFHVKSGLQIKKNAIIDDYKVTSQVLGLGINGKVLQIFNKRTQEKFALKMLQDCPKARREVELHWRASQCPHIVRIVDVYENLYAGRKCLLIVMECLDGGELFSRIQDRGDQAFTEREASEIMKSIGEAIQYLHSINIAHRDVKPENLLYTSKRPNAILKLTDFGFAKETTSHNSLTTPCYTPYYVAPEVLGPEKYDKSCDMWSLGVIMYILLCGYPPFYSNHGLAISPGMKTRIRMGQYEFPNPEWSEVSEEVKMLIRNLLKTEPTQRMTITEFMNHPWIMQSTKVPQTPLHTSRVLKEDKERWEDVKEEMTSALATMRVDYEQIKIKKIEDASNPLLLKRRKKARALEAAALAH
UniProt P78362, sequence (whole entry, looked up): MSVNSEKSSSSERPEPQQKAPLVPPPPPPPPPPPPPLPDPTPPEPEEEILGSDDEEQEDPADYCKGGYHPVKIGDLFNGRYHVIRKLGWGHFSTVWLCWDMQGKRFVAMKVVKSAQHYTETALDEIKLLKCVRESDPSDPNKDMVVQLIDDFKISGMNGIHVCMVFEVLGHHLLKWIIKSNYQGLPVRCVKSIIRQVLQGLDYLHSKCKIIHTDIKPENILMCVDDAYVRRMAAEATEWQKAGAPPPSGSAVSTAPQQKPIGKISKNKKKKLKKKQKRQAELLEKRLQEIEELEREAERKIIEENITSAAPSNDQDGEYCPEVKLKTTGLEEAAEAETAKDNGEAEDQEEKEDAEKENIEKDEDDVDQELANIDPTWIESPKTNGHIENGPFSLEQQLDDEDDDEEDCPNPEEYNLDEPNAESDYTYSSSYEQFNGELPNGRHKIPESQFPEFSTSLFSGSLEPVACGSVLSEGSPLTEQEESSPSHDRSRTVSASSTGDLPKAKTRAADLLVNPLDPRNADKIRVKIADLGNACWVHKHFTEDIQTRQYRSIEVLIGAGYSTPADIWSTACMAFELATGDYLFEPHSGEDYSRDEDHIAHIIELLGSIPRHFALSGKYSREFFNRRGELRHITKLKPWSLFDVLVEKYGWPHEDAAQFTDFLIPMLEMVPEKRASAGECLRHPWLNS
UniProt P15056, sequence (whole entry, looked up): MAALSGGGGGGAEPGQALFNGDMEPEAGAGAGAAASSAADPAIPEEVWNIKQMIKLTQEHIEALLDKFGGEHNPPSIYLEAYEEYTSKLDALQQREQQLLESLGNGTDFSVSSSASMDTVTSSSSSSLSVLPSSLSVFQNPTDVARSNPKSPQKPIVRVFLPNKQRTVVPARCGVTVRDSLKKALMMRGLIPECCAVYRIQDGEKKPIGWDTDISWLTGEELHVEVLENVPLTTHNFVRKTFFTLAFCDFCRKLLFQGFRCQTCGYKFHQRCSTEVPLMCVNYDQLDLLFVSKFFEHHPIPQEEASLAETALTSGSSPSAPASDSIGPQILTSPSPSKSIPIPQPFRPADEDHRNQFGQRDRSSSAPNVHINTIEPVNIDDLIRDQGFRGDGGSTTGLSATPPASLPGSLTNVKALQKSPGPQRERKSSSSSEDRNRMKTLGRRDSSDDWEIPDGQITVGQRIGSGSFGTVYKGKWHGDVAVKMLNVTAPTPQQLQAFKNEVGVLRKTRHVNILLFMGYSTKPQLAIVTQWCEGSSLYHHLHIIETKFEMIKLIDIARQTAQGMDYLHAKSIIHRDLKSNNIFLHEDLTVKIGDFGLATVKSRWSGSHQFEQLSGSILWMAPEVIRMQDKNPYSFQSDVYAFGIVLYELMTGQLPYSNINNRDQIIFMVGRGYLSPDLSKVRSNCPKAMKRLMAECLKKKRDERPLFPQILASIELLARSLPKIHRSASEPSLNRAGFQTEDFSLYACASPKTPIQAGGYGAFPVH
UniProt P49286, sequence (whole entry, looked up): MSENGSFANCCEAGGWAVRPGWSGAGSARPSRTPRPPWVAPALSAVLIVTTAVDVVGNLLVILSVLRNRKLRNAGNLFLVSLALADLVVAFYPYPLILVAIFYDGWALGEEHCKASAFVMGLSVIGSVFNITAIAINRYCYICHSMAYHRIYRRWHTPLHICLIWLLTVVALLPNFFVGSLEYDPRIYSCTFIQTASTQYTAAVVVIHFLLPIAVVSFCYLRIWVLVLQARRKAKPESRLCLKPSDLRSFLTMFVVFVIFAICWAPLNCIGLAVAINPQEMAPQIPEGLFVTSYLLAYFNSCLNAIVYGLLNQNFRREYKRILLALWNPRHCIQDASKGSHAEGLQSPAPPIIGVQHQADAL

CNc1ncc2c(/C=C/C(=O)N3CCC(OC)CC3)nn(Cc3cccc(C(F)(F)F)c3)c2n1  remaining activity (MAP kinase-activated protein kinase 2 (MAPKAPK2, Homo sapiens, UniProt P49137); enzyme activity, inhibitor, radiometric; 1 µM): 112%
C=CC(=O)N1CCC(COCC(=O)N2CCN(c3nc(-c4cnc(N)nc4C(F)F)nc(N4CCOC[C@@H]4C)n3)CC2)CC1  remaining binding (SRSF protein kinase 2 (SRPK2, Homo sapiens, UniProt P78362); binding, competition with immobilised ligand; 1 µM): 88%
O=C(NCCc1cccc2ccccc12)C1CCC1  Emax (Melatonin receptor type 1B (MTNR1B, Homo sapiens, UniProt P49286); cAMP, agonist, TR-FRET; CHO-K1; 20 min): 22%
Cc1ccc(C(=O)Nc2ccc(CN3CCN(C)CC3)c(C(F)(F)F)c2)cc1C#Cc1cnc2cccnn12  activity vs control (Cyclin-dependent kinase 4 (CDK4, Homo sapiens, UniProt P11802); enzyme activity, inhibitor; 23.5 nM): 98% and 94%
COc1cc(-c2cncc3c2CN(C)Cc2cc(N4CCNCC4)ccc2-3)cc(OC)c1OC  remaining activity (Proto-oncogene tyrosine-protein kinase Src (SRC, Homo sapiens, UniProt P12931); enzyme activity, inhibitor; 1 µM): 94%
CC[C@H](C)[C@H](NC(=O)[C@H](CCC(N)=O)NC(=O)[C@@H](NC(=O)[C@H](CCSC)NC(=O)[C@H](CCCCN)NC(=O)[C@H](CO)NC(=O)[C@@H](NC(=O)[C@H](CCSC)NC(=O)[C@H](CC(C)C)NC(=O)[C@H](CC(N)=O)NC(=O)[C@@H](NC(=O)[C@@H](NC(=O)[C@H](CO)NC(=O)[C@H](CC(C)C)NC(=O)[C@H](C)NC(=O)[C@H](CCCNC(=N)N)NC(=O)[C@H](CCC(=O)O)NC(=O)[C@H](Cc1ccc(O)cc1)NC(=O)[C@H](Cc1ccccc1)NC(=O)[C@H](C)NC(=O)[C@H](CC(N)=O)NC(=O)[C@@H](N)CCCCN)[C@@H](C)CC)[C@@H](C)CC)[C@@H](C)O)C(C)C)C(=O)N[C@@H](CC(N)=O)C(=O)N[C@H](C(=O)O)C(C)C  remaining activity (Mitogen-activated protein kinase 3 (MAPK3, Homo sapiens, UniProt P27361); enzyme activity, inhibitor, radiometric; 250 µM, 20 min): 65%
CC1=CC(O/C=C2/C(=O)OC3c4ccccc4CC23)OC1=O (racemic)  ΔTm (KAI2 (Arabidopsis thaliana, UniProt Q9SZU7); thermal stability, DSF; 100 µM): 0.3 °C
C1=C/COCc2cc(ccc2OCCN2CCCC2)Nc2nccc(n2)-c2cccc(c2)COC/1  remaining signal (Receptor-type tyrosine-protein kinase FLT3 (FLT3, Homo sapiens, UniProt P36888, F691L/ITD); cell-free assay; 0.1 µM): 2.2%
Cc1cc([C@@H](C)Nc2ccccc2C(=O)O)c2nc(N3CCC(F)(F)CC3)c(C#N)c(=O)n2c1  remaining binding (Serine/threonine-protein kinase B-raf (BRAF, Homo sapiens, UniProt P15056); binding, competition with immobilised ligand; 1 µM): 68%
